Published values from different studies.
Numbered parts are unrelated; each lists some results of a single study.

Sample 1 — method: protein binding microarray; form: double-stranded DNA, one strand shown; medium: in vitro; concentration: not given; relative to: not given; direction: higher = stronger binding
Target: Histone acetyltransferase KAT6A, winged helix 1, GST fusion (KAT6A, Homo sapiens, UniProt Q92794, residues 1-85)
Setting: 8-mer, flanks averaged, mean of 2 arrays, mostly near background
Target sequence (chain): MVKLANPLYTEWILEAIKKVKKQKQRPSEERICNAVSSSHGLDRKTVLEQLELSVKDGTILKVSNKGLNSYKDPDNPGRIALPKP
With `CGGACCAC` the E-score was 0.0372.
`ACAACTCA` has an E-score of -0.27.
`ACAAACCG` gave an E-score of -0.0343.
`TAAACCGA` has an E-score of -0.0805.

Sample 2 — method: protein-binding microarray; form: double-stranded DNA, one strand shown; medium: in vitro; concentration: 2540 nM top; setting: 60-bp whole probe; added: salmon DNA 0.4 mg/ml; relative to: random background probes; direction: higher = stronger binding; constant ends, left off below: GCCTAGCACG … GTCTTGATTCGCTTGACGCTGCTG
Target: Interferon regulatory factor 3, full length, phosphomimetic (IRF3, Homo sapiens, UniProt Q14653, residues 1-427, S386D/S396D/S398D/S402D/T404D/S405D)
Residues (chain): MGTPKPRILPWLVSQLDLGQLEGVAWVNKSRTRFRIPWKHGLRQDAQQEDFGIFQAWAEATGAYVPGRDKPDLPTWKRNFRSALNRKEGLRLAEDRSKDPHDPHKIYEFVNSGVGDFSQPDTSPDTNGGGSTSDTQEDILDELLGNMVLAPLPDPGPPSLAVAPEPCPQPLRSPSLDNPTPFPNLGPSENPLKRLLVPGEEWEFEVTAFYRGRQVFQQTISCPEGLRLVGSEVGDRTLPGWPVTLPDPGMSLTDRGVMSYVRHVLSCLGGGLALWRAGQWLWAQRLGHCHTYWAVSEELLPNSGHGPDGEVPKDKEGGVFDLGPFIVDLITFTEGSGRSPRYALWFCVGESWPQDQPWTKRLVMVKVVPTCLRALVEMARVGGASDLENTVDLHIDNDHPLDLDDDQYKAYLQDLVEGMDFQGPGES
Under “fitted relative affinity”, `ACGGTATCGGACTTGGGACGTGCTAG` is recorded as 2.57 z-score.
`ACGATATCGGGTATCCAGACGTGCTA`: “fitted relative affinity” 0.697 z-score.
Under “fitted relative affinity”, `ACTGTATCCTTCTCCTGACGTGCTAG` is recorded as 7.12 z-score.
`ACGAAATGGGGTTTCGAGACGTGCTA`: “fitted relative affinity” 0.72 z-score.
`GCTGTTTGGCCCTGAACCTGTGCTAG`: “fitted relative affinity” -0.48 z-score.

Sample 3 — method: aptamer microarray, sandwich; form: DNA with 2'F-ANA; medium: in vitro; concentration: 200 nM; added: Cy3 exosite-II aptamer, 400 nM; direction: higher = stronger binding; strand: GGTTGGTGTGGTTGG
Target: Prothrombin, mature alpha-thrombin (F2, Homo sapiens, UniProt P00734)
Setting: whole 15-mer aptamer, many near background
`2'F-ANA at 2 3 4 5 6 7 8 10 11 14`: “mean fluorescence intensity” 53.5 a.u.
`2'F-ANA at 1 3 8 11` — result for “mean fluorescence intensity”: 307 a.u.
`2'F-ANA at 4 5 7 8 10 14 15` — result for “mean fluorescence intensity”: 48.7 a.u.
Under “mean fluorescence intensity”, `2'F-ANA at 1 2 4 5 8 10 13 14 15` is recorded as 47.4 a.u.
Under “mean fluorescence intensity”, `2'F-ANA at 1 2 4 5 6 8 11 12` is recorded as 89.3 a.u.

Further values, each from its own experiment
`PhoQ, residues 284 288 289 292 302 303 NLGVHL` gave a fold induction of 7.18 (PhoP, residues 12 14 15 18 19 QQAYL (Escherichia coli, UniProt P23836); Sort-seq, item: YFP reporter; E. coli; PhoQ-PhoP variant library, added: 10 µM Mg2+; relative to: high Mg2+ state, higher = stronger signaling).
